# Assay results collected from several papers.
# Protocols differ between the studies behind these lines. Numbers after ± are the reported error.
# Sequence of UniProt O94900 (whole entry, looked up): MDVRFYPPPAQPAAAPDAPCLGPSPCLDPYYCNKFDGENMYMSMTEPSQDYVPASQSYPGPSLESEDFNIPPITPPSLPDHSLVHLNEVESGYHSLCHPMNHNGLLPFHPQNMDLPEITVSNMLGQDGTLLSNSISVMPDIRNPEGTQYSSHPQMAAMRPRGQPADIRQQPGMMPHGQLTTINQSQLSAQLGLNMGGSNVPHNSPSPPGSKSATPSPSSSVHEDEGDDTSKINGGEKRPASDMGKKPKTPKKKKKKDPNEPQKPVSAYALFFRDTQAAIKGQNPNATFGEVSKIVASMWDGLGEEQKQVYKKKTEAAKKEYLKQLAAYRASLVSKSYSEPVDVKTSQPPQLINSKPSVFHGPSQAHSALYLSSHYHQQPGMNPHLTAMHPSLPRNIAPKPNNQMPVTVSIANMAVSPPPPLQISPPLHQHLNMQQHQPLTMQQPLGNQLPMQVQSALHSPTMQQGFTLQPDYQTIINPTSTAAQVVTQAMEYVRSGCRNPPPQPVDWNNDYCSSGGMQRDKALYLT
# Sequence of UniProt P08648 (whole entry, looked up): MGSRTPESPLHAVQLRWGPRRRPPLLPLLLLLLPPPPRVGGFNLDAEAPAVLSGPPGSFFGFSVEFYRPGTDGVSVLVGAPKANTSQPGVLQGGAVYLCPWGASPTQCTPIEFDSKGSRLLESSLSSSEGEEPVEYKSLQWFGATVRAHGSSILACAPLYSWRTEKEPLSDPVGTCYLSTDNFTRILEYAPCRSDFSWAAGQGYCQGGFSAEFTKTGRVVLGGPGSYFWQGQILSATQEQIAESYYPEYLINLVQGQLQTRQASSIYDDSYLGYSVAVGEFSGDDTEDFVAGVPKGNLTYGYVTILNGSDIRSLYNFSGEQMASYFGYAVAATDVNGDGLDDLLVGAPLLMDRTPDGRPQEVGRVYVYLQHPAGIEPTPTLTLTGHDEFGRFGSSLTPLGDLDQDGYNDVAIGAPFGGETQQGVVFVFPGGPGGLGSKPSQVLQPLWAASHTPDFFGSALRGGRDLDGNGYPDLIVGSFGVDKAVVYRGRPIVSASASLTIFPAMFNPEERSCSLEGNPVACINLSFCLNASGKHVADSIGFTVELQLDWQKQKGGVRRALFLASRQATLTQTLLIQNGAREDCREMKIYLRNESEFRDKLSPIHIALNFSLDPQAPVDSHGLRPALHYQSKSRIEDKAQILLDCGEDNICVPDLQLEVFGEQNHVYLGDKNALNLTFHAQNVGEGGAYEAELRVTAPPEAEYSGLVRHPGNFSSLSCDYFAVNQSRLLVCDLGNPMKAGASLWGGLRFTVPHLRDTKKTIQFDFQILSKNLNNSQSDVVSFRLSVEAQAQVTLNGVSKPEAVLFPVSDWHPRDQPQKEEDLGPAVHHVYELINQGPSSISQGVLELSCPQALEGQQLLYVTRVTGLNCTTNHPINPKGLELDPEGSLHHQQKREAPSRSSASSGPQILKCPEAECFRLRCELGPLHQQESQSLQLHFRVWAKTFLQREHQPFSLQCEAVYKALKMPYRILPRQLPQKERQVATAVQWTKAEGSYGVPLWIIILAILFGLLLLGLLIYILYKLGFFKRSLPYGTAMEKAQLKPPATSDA
# Sequence of UniProt P28065 (whole entry, looked up): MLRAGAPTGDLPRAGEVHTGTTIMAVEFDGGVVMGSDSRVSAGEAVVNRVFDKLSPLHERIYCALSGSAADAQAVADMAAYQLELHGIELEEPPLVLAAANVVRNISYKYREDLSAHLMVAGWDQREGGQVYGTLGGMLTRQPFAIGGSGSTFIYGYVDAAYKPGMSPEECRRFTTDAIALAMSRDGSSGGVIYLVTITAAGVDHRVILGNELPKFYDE
# Sequence of UniProt Q9H2X6 (whole entry, looked up): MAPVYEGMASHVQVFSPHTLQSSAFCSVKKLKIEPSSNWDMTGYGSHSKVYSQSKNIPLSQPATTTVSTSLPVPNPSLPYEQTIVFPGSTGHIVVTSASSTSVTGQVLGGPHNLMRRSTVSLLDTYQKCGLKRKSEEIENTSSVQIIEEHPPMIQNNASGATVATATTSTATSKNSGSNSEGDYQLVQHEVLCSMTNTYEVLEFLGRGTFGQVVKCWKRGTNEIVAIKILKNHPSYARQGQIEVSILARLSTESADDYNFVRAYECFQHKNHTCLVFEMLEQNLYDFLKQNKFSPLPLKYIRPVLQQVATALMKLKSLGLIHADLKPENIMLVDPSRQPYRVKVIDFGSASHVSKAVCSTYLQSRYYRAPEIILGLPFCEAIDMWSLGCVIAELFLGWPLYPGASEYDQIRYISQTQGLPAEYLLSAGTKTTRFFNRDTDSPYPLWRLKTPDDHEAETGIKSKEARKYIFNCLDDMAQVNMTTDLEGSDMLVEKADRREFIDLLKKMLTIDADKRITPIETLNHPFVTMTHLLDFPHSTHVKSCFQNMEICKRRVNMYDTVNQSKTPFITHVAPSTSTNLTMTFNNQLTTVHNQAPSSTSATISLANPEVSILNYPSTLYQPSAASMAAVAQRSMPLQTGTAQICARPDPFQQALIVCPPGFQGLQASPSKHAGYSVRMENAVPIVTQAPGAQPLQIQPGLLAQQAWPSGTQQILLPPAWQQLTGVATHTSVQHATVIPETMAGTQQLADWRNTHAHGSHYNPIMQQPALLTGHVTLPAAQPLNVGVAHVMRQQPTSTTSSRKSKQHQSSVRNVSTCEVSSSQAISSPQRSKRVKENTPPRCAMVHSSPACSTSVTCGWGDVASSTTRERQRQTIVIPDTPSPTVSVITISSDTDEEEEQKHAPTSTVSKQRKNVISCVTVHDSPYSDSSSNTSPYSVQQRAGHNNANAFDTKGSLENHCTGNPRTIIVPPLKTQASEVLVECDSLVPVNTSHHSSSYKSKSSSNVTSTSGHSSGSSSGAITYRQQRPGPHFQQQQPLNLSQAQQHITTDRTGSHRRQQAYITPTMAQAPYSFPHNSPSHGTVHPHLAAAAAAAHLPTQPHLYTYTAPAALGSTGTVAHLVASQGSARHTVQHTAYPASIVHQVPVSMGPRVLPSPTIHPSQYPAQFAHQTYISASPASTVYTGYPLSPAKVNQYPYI
# Sequence of UniProt P05556 (whole entry, looked up): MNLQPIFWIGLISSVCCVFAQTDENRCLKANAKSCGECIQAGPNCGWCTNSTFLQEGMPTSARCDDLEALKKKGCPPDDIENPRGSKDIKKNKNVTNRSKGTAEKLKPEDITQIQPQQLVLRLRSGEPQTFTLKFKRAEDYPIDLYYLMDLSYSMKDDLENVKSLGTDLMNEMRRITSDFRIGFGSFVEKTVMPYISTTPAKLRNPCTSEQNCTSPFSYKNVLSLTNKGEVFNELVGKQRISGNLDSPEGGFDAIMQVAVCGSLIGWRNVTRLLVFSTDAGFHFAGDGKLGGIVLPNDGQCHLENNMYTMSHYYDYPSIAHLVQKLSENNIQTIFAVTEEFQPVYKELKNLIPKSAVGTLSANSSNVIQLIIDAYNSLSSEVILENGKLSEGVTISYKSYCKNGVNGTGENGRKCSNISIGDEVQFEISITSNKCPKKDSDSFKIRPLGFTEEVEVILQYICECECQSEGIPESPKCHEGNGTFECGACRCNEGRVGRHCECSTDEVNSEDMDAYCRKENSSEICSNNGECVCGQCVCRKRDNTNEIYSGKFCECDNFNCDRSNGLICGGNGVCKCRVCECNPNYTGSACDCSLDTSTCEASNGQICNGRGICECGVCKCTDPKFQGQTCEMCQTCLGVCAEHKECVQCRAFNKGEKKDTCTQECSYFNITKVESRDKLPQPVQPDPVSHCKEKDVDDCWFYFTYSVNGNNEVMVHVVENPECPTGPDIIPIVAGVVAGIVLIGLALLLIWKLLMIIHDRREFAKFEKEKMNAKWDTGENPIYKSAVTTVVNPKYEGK
# Sequence of UniProt O60656 (whole entry, looked up): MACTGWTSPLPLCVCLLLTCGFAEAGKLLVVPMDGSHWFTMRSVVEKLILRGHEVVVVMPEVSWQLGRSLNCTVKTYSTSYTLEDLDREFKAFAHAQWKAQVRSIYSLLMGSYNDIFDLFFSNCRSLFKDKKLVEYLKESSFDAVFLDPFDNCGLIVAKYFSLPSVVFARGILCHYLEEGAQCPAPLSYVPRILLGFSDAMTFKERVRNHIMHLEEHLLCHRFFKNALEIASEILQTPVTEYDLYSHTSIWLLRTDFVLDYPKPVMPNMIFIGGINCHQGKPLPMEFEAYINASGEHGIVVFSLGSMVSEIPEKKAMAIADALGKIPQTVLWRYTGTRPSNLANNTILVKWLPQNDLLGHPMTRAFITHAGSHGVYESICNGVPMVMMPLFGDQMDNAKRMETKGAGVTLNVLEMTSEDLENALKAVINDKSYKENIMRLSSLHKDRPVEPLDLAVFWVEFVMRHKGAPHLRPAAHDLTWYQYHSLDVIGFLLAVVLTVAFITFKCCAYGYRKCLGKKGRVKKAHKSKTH
# Sequence of UniProt P35030 (whole entry, looked up): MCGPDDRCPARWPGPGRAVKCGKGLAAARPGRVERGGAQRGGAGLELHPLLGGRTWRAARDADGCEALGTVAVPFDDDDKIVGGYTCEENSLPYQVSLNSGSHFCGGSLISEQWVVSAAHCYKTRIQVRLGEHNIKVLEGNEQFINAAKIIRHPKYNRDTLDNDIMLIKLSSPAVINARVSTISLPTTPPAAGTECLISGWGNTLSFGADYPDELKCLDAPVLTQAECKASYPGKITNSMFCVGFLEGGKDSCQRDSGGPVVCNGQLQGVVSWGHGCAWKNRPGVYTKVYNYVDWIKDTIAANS
Structure (SMILES),target,test,test system,setting,scale,IC50 [µM]
COC1CCC(C[C@H](NC(=O)[C@H](CC(C)C)NC(=O)[C@H](Cc2ccc(CN)cc2)NC(=O)[C@H](Cc2ccccc2)N=[N+]=[N-])C(=O)[C@@]2(C)CO2)CC1 (some centres unmarked),"Proteasome subunit beta type-9 (Homo sapiens, UniProt P28065)",competitive ABPP,Raji cell lysate,,,0.761
CCCC(=O)OC1CCC2(C)C(CCC3(C)C2CC=C2C4C(C)C(C)CCC4(C(=O)O)CCC23C)C1(C)C (centres unmarked),"UGT1A9 (Homo sapiens, UniProt O60656)","enzyme activity, inhibitor",,,,> 100
CCCCCCCCCCCC(=O)O,"uncharacterized protein (Spodoptera exigua, UniProt F1CEY0)","binding, fluorescence competitive binding",,together with: 1-NPN 2.0 µM,,2.99
Cc1nn(-c2cccc(N)c2)c(=O)c2cnc(Nc3ccc(N4CCNCC4)cc3)nc12,"HIPK2 (Homo sapiens, UniProt Q9H2X6)","kinase activity, inhibitor, SelectScreen kinase profiling",,,,> 10
Cc1nn(-c2ccc(S(N)(=O)=O)cc2)c(C)c1CCC(=O)Nc1cccc(-c2cn(C)nn2)c1,"CA9 (Homo sapiens, UniProt Q16790)","enzyme activity, inhibitor",,,,0.0269
C[C@H](NC(=O)c1cccc(NC2=NCC(F)CN2)c1)C(=O)NC[C@H](NC(=O)c1c(Cl)cc(-c2ccccc2)cc1Cl)C(=O)O (relative stereo),"Integrin alpha-5/beta-1 (Homo sapiens, UniProt P05556+P08648)","cell adhesion, inhibitor",SW480,together with: fibronectin 0.3 µg/mL,,20
N#Cc1c(N)nc2c(c1-c1ccccc1)Cc1cc(O)ccc1-2,"Thymocyte selection-associated high mobility group box protein TOX, with KAT7 (Homo sapiens, UniProt O94900)","TOX-KAT7 binding, inhibitor, ELISA",,,no inhibition at 10 µM,> 10
Cc1nc(S(=O)(=O)Nc2cc3c(cc2Oc2cccc(COCC(C)C)c2)n(C)c(=O)n3C)cn1C,"Transcription initiation factor TFIID subunit 1, BD2 (TAF1, Homo sapiens, UniProt P21675)","enzyme activity, inhibitor, TR-FRET",,,,> 20
C[C@@H](CNCc1cc(Cl)cc(Cl)c1)CNc1nc2nc(F)ccc2[nH]1,"Methionyl-tRNA synthetase, putative (Trypanosoma brucei brucei, UniProt Q38C91)","enzyme activity, inhibitor",,,,< 0.01
CO[C@@H]1[C@@H](OC(=O)c2ccc(C)[nH]2)[C@@H](O)[C@H](Oc2ccc3c(O)c(NC(=O)c4c[nH]c(C(=O)Nc5c(O)c6ccc(O[C@@H]7OC(C)(C)[C@H](OC)[C@@H](OC(=O)c8ccc(C)[nH]8)[C@H]7O)c(C)c6oc5=O)c4C)c(=O)oc3c2C)OC1(C)C,human CMG helicase,helicase activity,,together with: ATP 0.5 mM,,13.8
Cc1nc(-c2c[nH]c(C(=O)Nc3ncccc3O)c2)cs1,"Trypsin-3 (Homo sapiens, UniProt P35030)","binding, microscale thermophoresis",,,,135 ± 3.2

# Excerpt of the above:
Structure (SMILES),target,test,test system,setting,scale,IC50 [µM]
N#Cc1c(N)nc2c(c1-c1ccccc1)Cc1cc(O)ccc1-2,"Thymocyte selection-associated high mobility group box protein TOX, with KAT7 (Homo sapiens, UniProt O94900)","TOX-KAT7 binding, inhibitor, ELISA",,,no inhibition at 10 µM,> 10
Cc1nc(-c2c[nH]c(C(=O)Nc3ncccc3O)c2)cs1,"Trypsin-3 (Homo sapiens, UniProt P35030)","binding, microscale thermophoresis",,,,135 ± 3.2
